# Experimental data of several laboratories.
# Every numbered part comes from another study and shows a few of its results, in no order. “And” joins repeats or separate records; there may be more than shown.
# Chain of UniProt O94921 (whole entry, looked up): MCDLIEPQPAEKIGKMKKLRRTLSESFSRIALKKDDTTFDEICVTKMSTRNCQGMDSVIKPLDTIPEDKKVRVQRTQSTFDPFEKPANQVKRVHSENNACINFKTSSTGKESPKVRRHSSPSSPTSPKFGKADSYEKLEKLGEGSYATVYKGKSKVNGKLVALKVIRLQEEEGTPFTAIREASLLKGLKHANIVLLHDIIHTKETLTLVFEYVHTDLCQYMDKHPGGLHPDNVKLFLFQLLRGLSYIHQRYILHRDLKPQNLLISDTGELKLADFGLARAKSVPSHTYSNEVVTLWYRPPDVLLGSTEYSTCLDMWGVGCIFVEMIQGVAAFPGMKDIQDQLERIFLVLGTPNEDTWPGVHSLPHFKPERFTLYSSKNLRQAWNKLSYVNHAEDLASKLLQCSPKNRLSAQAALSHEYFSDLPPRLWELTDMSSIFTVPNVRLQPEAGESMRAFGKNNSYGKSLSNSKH
# Chain of UniProt P11309 (whole entry, looked up): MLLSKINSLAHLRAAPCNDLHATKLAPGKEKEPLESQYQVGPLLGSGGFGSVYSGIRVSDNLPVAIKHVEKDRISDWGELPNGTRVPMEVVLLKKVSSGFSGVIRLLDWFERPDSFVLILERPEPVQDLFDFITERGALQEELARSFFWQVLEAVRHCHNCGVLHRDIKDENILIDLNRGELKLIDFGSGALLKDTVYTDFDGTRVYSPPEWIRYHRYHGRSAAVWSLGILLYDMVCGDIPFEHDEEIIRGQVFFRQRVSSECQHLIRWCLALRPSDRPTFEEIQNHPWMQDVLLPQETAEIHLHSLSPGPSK
# Chain of UniProt Q13237 (whole entry, looked up): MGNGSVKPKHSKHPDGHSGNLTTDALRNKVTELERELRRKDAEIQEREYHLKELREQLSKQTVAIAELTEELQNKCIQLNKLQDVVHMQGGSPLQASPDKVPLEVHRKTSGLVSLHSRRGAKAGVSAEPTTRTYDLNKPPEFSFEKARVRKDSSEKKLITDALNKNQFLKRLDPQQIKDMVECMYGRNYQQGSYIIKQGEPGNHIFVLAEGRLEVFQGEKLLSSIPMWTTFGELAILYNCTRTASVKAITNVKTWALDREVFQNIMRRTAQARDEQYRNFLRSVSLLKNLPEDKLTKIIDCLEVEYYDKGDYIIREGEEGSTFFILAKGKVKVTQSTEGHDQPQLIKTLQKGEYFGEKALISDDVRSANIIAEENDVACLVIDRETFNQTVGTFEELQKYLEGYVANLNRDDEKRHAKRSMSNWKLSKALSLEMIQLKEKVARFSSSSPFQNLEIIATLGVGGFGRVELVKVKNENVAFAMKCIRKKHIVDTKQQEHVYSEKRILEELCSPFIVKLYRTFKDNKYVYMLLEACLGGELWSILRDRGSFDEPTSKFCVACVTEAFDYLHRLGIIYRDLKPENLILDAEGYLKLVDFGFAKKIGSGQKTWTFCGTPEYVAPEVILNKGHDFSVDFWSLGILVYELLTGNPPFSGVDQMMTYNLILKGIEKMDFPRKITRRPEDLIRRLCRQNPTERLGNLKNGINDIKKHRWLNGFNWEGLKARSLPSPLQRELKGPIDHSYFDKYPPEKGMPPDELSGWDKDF
# Chain of UniProt P35968 (whole entry, looked up): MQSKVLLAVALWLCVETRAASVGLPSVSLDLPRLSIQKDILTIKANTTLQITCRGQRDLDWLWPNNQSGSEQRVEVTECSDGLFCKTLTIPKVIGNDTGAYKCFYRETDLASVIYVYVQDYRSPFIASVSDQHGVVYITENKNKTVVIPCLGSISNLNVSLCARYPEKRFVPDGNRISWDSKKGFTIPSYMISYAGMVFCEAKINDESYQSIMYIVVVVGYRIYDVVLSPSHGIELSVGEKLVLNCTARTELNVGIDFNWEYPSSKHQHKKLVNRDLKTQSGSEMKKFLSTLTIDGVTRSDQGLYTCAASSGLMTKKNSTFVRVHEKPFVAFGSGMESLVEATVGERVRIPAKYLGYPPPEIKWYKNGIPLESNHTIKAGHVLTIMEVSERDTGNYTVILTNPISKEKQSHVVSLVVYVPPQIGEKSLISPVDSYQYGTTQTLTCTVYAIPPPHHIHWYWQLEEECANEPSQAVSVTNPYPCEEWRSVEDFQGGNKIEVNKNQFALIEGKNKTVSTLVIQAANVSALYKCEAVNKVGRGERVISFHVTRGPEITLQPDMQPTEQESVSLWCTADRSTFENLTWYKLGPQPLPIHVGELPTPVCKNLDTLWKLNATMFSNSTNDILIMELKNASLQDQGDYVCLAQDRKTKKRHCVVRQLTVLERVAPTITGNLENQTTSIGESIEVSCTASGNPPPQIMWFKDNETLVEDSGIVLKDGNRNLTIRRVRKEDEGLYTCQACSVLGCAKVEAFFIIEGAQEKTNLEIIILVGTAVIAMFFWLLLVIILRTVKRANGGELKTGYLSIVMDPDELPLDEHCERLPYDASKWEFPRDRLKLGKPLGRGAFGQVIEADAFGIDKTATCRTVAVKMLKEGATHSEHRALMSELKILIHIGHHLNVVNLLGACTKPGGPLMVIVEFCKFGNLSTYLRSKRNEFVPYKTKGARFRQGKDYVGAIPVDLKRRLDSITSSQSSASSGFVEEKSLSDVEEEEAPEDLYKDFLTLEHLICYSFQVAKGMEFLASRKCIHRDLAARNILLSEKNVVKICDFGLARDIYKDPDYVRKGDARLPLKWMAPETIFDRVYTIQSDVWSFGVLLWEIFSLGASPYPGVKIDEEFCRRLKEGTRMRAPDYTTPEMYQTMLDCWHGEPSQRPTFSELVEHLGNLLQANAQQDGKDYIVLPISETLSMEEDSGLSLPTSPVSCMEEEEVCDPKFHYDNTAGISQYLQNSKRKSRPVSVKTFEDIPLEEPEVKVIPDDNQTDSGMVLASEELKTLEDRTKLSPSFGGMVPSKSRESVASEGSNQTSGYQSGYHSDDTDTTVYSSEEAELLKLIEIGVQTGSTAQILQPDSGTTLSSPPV
# Chain of UniProt Q00526 (whole entry, looked up): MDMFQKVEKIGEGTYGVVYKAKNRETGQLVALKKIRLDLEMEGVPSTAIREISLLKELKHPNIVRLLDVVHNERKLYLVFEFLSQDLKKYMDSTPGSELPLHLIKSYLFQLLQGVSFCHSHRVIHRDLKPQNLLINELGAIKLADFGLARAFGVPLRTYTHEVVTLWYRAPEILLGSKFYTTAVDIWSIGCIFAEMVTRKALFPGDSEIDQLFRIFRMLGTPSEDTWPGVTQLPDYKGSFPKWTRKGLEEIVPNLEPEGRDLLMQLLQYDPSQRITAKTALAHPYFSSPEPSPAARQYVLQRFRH
# Chain of UniProt O95819 (whole entry, looked up): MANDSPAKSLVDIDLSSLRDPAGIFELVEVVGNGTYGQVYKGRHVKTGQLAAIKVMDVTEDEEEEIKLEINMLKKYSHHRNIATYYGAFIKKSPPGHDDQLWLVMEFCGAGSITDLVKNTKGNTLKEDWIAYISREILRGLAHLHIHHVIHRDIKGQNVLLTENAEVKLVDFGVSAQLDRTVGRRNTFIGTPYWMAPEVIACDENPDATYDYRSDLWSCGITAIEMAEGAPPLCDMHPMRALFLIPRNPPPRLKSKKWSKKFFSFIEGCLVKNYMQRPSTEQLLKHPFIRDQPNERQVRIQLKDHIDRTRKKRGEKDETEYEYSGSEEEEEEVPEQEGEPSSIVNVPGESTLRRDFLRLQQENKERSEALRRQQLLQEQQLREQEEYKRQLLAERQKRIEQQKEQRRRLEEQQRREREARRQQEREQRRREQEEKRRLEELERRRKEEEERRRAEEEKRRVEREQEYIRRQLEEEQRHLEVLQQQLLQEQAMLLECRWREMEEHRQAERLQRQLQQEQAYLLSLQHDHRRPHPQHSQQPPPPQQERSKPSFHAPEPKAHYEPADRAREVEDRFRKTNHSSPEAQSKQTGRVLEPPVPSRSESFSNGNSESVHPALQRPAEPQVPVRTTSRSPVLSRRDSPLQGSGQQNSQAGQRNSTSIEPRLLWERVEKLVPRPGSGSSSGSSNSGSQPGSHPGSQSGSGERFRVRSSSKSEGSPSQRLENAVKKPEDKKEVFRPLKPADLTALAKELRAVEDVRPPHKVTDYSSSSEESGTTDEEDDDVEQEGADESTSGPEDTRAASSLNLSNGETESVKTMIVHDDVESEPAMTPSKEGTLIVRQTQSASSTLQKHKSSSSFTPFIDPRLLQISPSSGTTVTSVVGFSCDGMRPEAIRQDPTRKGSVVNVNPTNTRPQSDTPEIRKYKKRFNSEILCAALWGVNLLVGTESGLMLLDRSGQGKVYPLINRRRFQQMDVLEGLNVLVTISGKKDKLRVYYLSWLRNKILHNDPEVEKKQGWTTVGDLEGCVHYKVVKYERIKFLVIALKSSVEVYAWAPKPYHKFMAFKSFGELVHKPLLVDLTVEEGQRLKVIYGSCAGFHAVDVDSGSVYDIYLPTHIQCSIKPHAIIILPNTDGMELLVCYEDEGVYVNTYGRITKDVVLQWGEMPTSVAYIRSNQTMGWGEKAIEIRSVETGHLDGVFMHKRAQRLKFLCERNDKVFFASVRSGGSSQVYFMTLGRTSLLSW
# Chain of UniProt Q13043 (whole entry, looked up): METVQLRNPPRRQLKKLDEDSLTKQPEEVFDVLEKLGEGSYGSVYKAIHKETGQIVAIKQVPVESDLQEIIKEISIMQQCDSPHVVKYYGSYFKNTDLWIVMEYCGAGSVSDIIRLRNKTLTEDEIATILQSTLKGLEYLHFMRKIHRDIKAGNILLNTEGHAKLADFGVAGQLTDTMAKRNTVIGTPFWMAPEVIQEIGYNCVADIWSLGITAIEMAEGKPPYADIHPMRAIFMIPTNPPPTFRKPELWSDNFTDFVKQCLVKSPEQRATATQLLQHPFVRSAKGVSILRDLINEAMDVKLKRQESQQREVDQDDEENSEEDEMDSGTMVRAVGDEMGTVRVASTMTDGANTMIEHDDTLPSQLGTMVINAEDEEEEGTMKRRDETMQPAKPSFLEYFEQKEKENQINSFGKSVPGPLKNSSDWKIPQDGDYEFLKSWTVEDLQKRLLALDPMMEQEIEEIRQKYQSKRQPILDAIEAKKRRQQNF

# Sample 1 — effect on: cell-free assay; method: competition with immobilised ligand; tested at: 0.1 µM
# Compound: C[C@@H]1CN(c2cc(-c3n[nH]c4ccc(OC5(C)CC5)cc34)ncn2)C[C@H](C)O1
target,remaining binding
"KIT (Homo sapiens, UniProt P10721, D816H)",67%
"MAP4K4 (Homo sapiens, UniProt O95819)",98%
"CDK8 (Homo sapiens, UniProt P49336)",63%
"PIM1 (Homo sapiens, UniProt P11309)",100%
"IRAK1 (Homo sapiens, UniProt P51617)",79%
"Tyrosine-protein kinase ABL1, phosphorylated (ABL1, Homo sapiens, UniProt P00519, T315I)",86%
"CDK14 (Homo sapiens, UniProt O94921)",100%
"WNK4 (Homo sapiens, UniProt Q96J92)",94%
"CDK3 (Homo sapiens, UniProt Q00526)",76%
"STK4 (Homo sapiens, UniProt Q13043)",83%

# Sample 2 — effect on: enzyme activity; mode: inhibitor; tested at: 0.5 µM; reference: control
# Structure (SMILES): C[C@@H](N)[C@H]1CC[C@H](C(=O)Nc2ccncc2)CC1
target,remaining activity
"TXK (Homo sapiens, UniProt P42681)",98.9%
"MET (Homo sapiens, UniProt P08581)",94.2%
"RPS6KA4 (Homo sapiens, UniProt O75676)",96.8%
"Cyclin-dependent kinase 9, with cyclin K (CDK9, Homo sapiens, UniProt P50750)",107%
"PNCK (Homo sapiens, UniProt Q6P2M8)",93.9%
"DDR2 (Homo sapiens, UniProt Q16832)",92%
"PAK3 (Homo sapiens, UniProt O75914)",96.5%
"MAP2K1 (Homo sapiens, UniProt Q02750)",100%
"Cyclin-dependent kinase 1, with cyclin A (CDK1, Homo sapiens, UniProt P06493)",84.9%
"CLK4 (Homo sapiens, UniProt Q9HAZ1)",87.3%
"PRKG2 (Homo sapiens, UniProt Q13237)",85.2%
"CLK3 (Homo sapiens, UniProt P49761)",98.6%
"KDR (Homo sapiens, UniProt P35968)",88.8%

# Sample 3 — organism: Plasmodium berghei; mode: inhibitor; cells: Huh-7; strain: GFP-expressing sporozoites, liver stage; tested at: 10 µM; time: 24 h; reference: untreated control
SMILES,infection rate [%]
O=C(Oc1cccc2cccnc12)c1ccccc1,15.6
CCCC(C(=O)OCCN(CC)CC)(c1ccccc1)c1ccccc1,7.36
CN1CCC[C@@H]1Cc1c[nH]c2ccc(CCS(=O)(=O)c3ccccc3)cc12,101
O=C(O)Cc1ccccc1Nc1c(Cl)cccc1Cl,109

# Sample 4 — cell line: mouse MPNST tumor cells; method: high-content immunofluorescence imaging; item: nuclear SOX9; tested at: 10 µM; time: 12 h; setting: mean of 2 replicates; reference: DMSO control; direction: higher = more nuclear SOX9
SMILES,nuclear SOX9 intensity
CC(C)(C)n1nc(-c2ccc(Cl)cc2)c2c(N)ncnc21,151 % of DMSO
COc1ccc(-c2c(C)nn3c(C(F)(F)F)cc(C)nc23)c(F)c1F,111 % of DMSO
Cc1ccc(C(C)C)cc2c(C)ccc1-2,103 % of DMSO
NS(=O)(=O)c1cc2c(cc1C(F)(F)F)NCNS2(=O)=O,103 % of DMSO
CN(C)CCOC(c1ccccc1)c1ccccc1.Cn1c(=O)c2[nH]c(Cl)nc2n(C)c1=O,101 % of DMSO
CC(CN(C)C)CN1c2ccccc2CCc2ccccc21 (stereo not drawn),169 % of DMSO
O=c1c(-c2ccc(O)cc2)coc2cc(O)ccc12,107 % of DMSO
CSc1nc2cc(Cl)c(Oc3cccc(Cl)c3Cl)cc2[nH]1,119 % of DMSO
CC[C@H](C)C(=O)O[C@H]1C[C@@H](C)C=C2C=C[C@H](C)[C@H](CC[C@@H]3C[C@@H](O)CC(=O)O3)[C@H]21,123 % of DMSO and 112 % of DMSO

# A few entries again (sample 1):
target,remaining binding
"KIT (Homo sapiens, UniProt P10721, D816H)",67%
"MAP4K4 (Homo sapiens, UniProt O95819)",98%
